Results pooled from the literature.
Protocols differ between the studies behind these lines. Numbers after ± are the reported error.
UniProt P06276, sequence (whole entry, looked up): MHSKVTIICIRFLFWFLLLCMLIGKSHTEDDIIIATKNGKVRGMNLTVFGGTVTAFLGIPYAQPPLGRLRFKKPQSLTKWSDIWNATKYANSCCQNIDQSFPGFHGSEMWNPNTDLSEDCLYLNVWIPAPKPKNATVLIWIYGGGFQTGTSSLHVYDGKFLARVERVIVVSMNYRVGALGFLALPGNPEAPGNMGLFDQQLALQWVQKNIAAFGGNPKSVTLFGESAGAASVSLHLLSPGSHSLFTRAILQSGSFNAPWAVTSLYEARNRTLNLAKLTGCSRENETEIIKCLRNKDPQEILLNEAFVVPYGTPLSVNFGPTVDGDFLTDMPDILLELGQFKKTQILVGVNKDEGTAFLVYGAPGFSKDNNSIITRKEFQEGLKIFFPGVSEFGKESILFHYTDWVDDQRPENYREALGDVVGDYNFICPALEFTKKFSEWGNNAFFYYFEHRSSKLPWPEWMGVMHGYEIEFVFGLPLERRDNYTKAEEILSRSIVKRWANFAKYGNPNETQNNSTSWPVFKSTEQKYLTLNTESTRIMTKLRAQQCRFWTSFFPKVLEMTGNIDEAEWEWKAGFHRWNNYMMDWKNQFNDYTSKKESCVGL

| SMILES | target or system | test | test system | setting | scale | measurement | value |
| --- | --- | --- | --- | --- | --- | --- | --- |
| C[C@@H](NC(=O)N1C(=O)[C@H](Cc2ccnc(N)c2)[C@H]1C(=O)O)C1CCCCC1 | – | – | healthy adult Chinese volunteers | continuous intravenous infusion, 2.25 mg/kg/h, 5-day infusion, CTCAE 5.0 grading | – | incidence of elevated neutrophil | 0% |
| C[C@]1(CO)Cc2ncn(-c3ccc(C#N)c(Cl)c3)c2C(=O)O1 | – | – | Japanese subjects | 20 mg single dose | – | any adverse event incidence | 33.3% |
| CN(C)CCOC(C)(c1ccccc1)c1ccccn1 (centres unmarked) | Plasmodium falciparum | – | Dd2 | – | – | IC50 | 10 µM |
| COc1cc2c(Oc3ccc4[nH]c(C)cc4c3F)ccnc2cc1OCC1(N)CC1 | – | – | paediatric recurrent refractory sarcoma | concentration not given, whole group | – | grade 1 or 2 Fever | 14.7% |
| CC(C)(O)c1cc(Nc2cc(Oc3cn(C4CC4)nc3C3CCOCC3)ccn2)ccn1 | – | Asthenia | advanced cancer patients, dose escalation | oral, dose not given, 3 weeks on/1 off, all causality grade ≥3 | – | treatment-emergent adverse events | 6% |
| CO[C@H]1C[C@@H]2CC[C@@H](C)[C@@](O)(O2)C(=O)C(=O)N2CCCC[C@H]2C(=O)O[C@H]([C@H](C)C[C@@H]2CC[C@@H](OC(=O)NCCOCCOCCOCCOCCOCCOCCOCCOCCC(=O)N3CCc4cc(Cn5nc(-c6ccc7oc(N)nc7c6)c6c(N)ncnc65)ccc4C3)[C@H](OC)C2)C[C@@H](O)[C@H](C)/C=C(\C)[C@@H](O)[C@@H](OC)C(=O)[C@H](C)C[C@H](C)/C=C/C=C/C=C/1C | – | – | patients with advanced solid tumours | intravenous, 10 mg weekly, any grade | – | nausea incidence | 50% |
| NC(=O)[C@H]1CCN(c2ncnc(N)c2F)C[C@@H]1N1CCC[C@@H](Nc2cc(Cl)cc(C(F)(F)F)c2)C1=O | – | – | B-cell malignancy patients | oral, 246 mg twice daily, dose | – | grade ≥3 lymphopenia | 0% |
| CC(C)n1cnc2c(NCCc3ccc(O)cc3)nc(-c3csc4ccccc34)nc21 | Cholinesterase (BCHE, Homo sapiens, UniProt P06276) | inhibitor | – | – | – | IC50 | 3.85 µM |
| COc1cc(C2C3=C(COC3=O)N(CCO)c3cc4c(cc32)CCC4)cc(OC)c1OC (centres unmarked) | – | – | female Sprague-Dawley rats | intraperitoneal, 200 mg/kg, 24 h, single dose, mean | – | body weight | 200 g |
| CC1Cc2cc3c(cc2C(c2ccc(N)cc2)=NN1)OCO3 (centres unmarked) | Plasmodium falciparum | – | 7G8 | – | – | IC50 | 12.6 µM |
| O=C(Nc1ccccc1)C1CCN(C(=O)Oc2cccnc2)CC1 | – | psychotropic effects VAS | healthy women | 60 mg | relative to: pre-dose baseline, direction not given | change in Sounds score | 12 |
| Clc1ccc(-c2cc(Cl)c(Cl)cc2Cl)cc1Cl | – | – | fresh water | 20 °C, SSP sampler, 100 µm | – | log K(PDMS-water) | 5.99 ± 0.02 |
| CC(C)[C@H](N)C(=O)NCCCS(=O)(=O)O | – | – | human, plasma | oral, 265 mg twice daily, week 65, steady state | – | MRT(0-inf) | 2 h |
| O=C1Nc2cc3[nH]nc(-c4ccncc4)c3cc2CN1Cc1ccccc1 | – | CTCAE v4.03 | advanced solid tumour patients | intravenous, 0.45 mg/kg, schedules 1/2 | – | patients with headache | 0% |
| COc1cccc2c1CCCC2CCCN1CCN(C2CCCCC2)CC1 (centres unmarked) | – | – | CD-1 mouse, male, plasma | intraperitoneal, 1 mg/kg | – | elimination rate constant | 5.78e-05 s⁻¹ |
| CC(C)C[C@@H]1NC(=O)CNC(=O)[C@H](CC(N)=O)NC(=O)[C@H](CCCNC(=N)N)NC(=O)[C@H]([C@@H](C)O)NC(=O)[C@@H]2CSSC[C@@H]3NC(=O)[C@H]([C@@H](C)O)NC(=O)CNC(=O)CNC(=O)[C@H](C(C)C)NC(=O)[C@@H]4CSSC[C@H](NC(=O)[C@H](CCCCN)NC(=O)[C@H](CSSC[C@H](NC(=O)[C@H](C(C)C)NC(=O)[C@@H]5CCCN5C1=O)C(=O)NCC(=O)N[C@@H](CCC(=O)O)C(=O)N[C@@H]([C@@H](C)O)C(=O)N4)NC(=O)CNC(=O)[C@@H]1CCCN1C(=O)[C@H]([C@@H](C)O)NC(=O)[C@H](CC(N)=O)NC3=O)C(=O)N[C@@H](CO)C(=O)N[C@@H](Cc1c[nH]c3ccccc13)C(=O)N1CCC[C@H]1C(=O)N[C@@H](C(C)C)C(=O)N2 | – | HPLC | water | 180 µM, 14 days, 37 °C, deamidation stability | – | remaining peptide | 99.1 ± 0.3% |
| CN1CC[C@@H](c2c(O)cc(O)c3c(=O)cc(-c4ccc(C(F)(F)F)cc4Cl)oc23)[C@@H]1CO | – | measured: Syncope | relapsed B-cell malignancies | oral, 150 mg, grade 3-4, intermittent dosing | – | patients with adverse event | 0% |
